# Assay results pooled from the literature.
# Every numbered part comes from another study and shows a few of its results, in no order. Substitutions count along the parent as printed.

# Study 1
# Target: Ras GTPase-activating protein-binding protein 1, C-terminal RGG region (G3BP1, Homo sapiens, UniProt Q13283)
# Sequence of UniProt Q13283 (whole entry, looked up): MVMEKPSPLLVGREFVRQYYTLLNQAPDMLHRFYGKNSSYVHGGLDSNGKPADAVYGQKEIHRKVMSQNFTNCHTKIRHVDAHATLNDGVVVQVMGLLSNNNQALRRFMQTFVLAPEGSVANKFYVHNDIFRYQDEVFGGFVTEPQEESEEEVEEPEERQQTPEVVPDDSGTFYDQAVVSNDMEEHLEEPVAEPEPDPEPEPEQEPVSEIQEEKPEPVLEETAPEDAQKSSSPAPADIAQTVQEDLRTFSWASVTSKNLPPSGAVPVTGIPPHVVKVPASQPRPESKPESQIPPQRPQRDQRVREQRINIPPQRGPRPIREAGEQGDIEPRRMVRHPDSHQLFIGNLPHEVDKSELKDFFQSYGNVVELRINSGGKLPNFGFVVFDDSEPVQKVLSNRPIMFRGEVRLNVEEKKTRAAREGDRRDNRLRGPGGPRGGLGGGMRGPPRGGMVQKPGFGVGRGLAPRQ
# Method: RNA Bind-n-Seq
# Molecule type: RNA
# Medium: in vitro
# Tested at: 1 µM
# Setting: whole 134-nt RNA, ends assumed
# With: 150 mM KCl
# Relative to: input library
# Reading: higher = stronger binding
Strand,log2 enrichment
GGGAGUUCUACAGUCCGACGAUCUGGGAGGUGGAUUUUGUUUAUUUUUUUAGCUCAUUUCCAGGGGUGGGAAUUUUUUUUUAAUAUGUGUCAUGAAUUAAGUUGUUUUUGAAAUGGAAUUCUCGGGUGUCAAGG,2.39
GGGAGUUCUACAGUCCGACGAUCGUCCUGUGCUACACAUCGUAUGUACCGAAUCGGAAAAAAGGGAAAAAAGGAAAAAAGGAAAGUAUUAUGUUACGCCGUUCGGAUCUGCACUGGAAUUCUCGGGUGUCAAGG,-1.4
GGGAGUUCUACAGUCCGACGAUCAAGUCCUGUGCUACACAUCGUAUGUACCGAAUCGGUUUUUUUGGAAAAAAAGGUGGAAAGUAUUAUGUUACGCCGUUCGGAUCUGCACUUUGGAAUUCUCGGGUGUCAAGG,-2.1
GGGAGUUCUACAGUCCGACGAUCGUCCUGUGCUACACAUCGUAUGUACCGAAUCGGGUUUGGGUUUUUUUGGGAAAAAGGGAAAGUAUUAUGUUACGCCGUUCGGAUCUGCACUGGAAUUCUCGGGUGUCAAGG,-0.084
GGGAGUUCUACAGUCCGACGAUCUAACUUUAGAGGAGGAUCUGAUGGAUAUGGCAGUGGACGUGGAUUUGCGGAUGGCUAUAAUGGGUAUGGAGGAGGACCUGGAGGUGGCAAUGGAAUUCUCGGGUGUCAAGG,-0.935
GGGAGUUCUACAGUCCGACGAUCUUCCUCAAGUCCUGUGCUACACAUCGUAUGUACCGAAUCGGCGGCGGCGGAAAGUAUUAUGUUACGCCGUUCGGAUCUGCACUUCCAGCAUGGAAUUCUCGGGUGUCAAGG,-0.642
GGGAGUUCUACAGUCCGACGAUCCUCAAGUCCUGUGCUACACAUCGUAUGUACCGAAUCGGGAGGGGAGGGGAGGGGAAAGUAUUAUGUUACGCCGUUCGGAUCUGCACUUCCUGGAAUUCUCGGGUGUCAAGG,2.88
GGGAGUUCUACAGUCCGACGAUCUAACUUUAGAGGAGGAUCUGAUGGAUAUGGCAGAGGACGUGGAUUUGGGGAUGGCUAUAAUGGGUAUGGAGGAGGACCUGGAGGUGGCAAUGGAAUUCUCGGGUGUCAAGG,-0.56
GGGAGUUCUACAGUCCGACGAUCCACAGACAACACGCACCCACACAGACACAGAGGGAAGGGGUUGGGAUGGGGACAGGGUGCACAGCAGGGCUGGGUAGGACCCCAGCCCCUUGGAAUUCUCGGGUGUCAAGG,-1.13
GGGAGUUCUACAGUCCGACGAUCCAAGUCCUGUGCUACACAUCGUAUGUACCGAAUCGGUUUGGAAAAAAAGGUUUGGAAAGUAUUAUGUUACGCCGUUCGGAUCUGCACUUCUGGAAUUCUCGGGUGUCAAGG,-2.2

# Study 2
# Target: Histone acetyltransferase KAT6A, winged helix 2, GST fusion (KAT6A, Homo sapiens, UniProt Q92794, residues 85-181)
# Method: protein binding microarray
# Molecule type: double-stranded DNA, one strand shown
# Medium: in vitro
# Tested at: not given
# Setting: 8-mer, flanks averaged, mean of 2 arrays, mostly near background
# Relative to: not given
# Reading: higher = stronger binding
# Construct (chain): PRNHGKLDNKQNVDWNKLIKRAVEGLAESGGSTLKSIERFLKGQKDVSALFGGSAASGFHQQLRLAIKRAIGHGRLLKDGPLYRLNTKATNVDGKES
Strand,E-score
TCAGTGCA,0.0709
AATCGCAT,0.0655
CCAACCCA,-0.137
TAAATGAA,-0.032
AGCCTAAG,-0.0779
CATTATGC,0.0194
ATATGGGG,0.00571
AAACGGGA,-0.0919
ACTGGCCC,0.242
ACTTCAAT,0.00829
GAAAATGC,0.0292
CACCAGAA,-0.0754
CAGGCTTC,0.101
GCTCAAAA,0.141
ATCTGGGG,-0.133
TACTTCCA,-0.0358
CGATTAAA,0.142

# Study 3
# Target: RNA binding protein fox-1 homolog 2, RRM domain, GST-SBP tag (RBFOX2, Homo sapiens, UniProt O43251-10, residues 100-194)
# Method: RNA Bind-n-Seq
# Molecule type: RNA
# Medium: in vitro
# Tested at: 365 nM
# Setting: natural RNA segment, single round, ends assumed
# Relative to: no-protein control
# Reading: higher = stronger binding
# Residues (chain): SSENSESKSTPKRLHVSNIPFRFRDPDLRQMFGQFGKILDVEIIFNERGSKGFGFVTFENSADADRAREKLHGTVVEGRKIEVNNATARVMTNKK
Strand,RBNS enrichment (R)
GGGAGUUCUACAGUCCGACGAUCUGCUCAAACUGUCAUGGCACCACGGGCAAUGCGGUCCUCCCUACCGUUCUCCUUCCCCUUCUCUGCAUCUGCUUUCUCCAGGUCCCCGUAUAUCAACCUUCGACUUUCUCUGGAAUUCUCGGGUGCCAA,2.16
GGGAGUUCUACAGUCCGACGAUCGGAUGUCUCUCCUUCCUUACUGUGGCUUCUGCAUGCACUUACACUGUACUUGACGGCUGGCCUCCAGGGUCUCUCUUGCUUUGUACUGGUUCCCCUCUUUACCUUCACCAUGGAAUUCUCGGGUGCCAA,12.1
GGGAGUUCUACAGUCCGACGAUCGCCUCAGUCUUACUGAUUUCAAACACUUUUUUCUUCUGUGUAUUGCUUUUAAGAGAGCCAUCAGUUAGCUAUCAGACUCUAGGUUGAUGCAUUUUGUACUUAGCUGUACUUGGAAUUCUCGGGUGCCAA,1.29
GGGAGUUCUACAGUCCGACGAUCUGGAUUUGGGAAUCAAACUCAAGCCCAUCUAAUCCAAGGGUAGGAAAUGUCUCUAAAACGUUGAUCAAUCUGAAGCUUACAGAUUGGAAACUGGGCCAGGUCAGCCCUGGUGGAAUUCUCGGGUGCCAA,0.256
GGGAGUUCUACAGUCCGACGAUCGCUUUUUUUGUAUUUUAUUAAUAUAGACUCUCAUUGAAUAAUUUACCUUGCAGCAGAUUUGACAUUGCUGCAUAGAAGGGGCAGGUGUUGGUUUUUGUUUCUUGCAUUUCUGGAAUUCUCGGGUGCCAA,2.15
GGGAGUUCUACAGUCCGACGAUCCGGAGGCGGCCUUCUGGGUCCCCACCUCUCCUGGUUCCGCUGCUGCUCUCCCUGCUGAUGAUAAAGUAAUCUCUGGAGUCACACCUGGGCCAUGUGAUUGUUUUAUUUUGUGGAAUUCUCGGGUGCCAA,0.444
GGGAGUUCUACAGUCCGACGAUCAUGCCUGUUAGACCUUAGCUGUGGGGUUCCUUUACUAUUGGGUGAAUCAUUAGGUAUAAAAAAUAAUCAUCAACCAGGCAAAUUACUUUGCUUCCUAGCUGAUGUCAUCCUGGAAUUCUCGGGUGCCAA,2.1
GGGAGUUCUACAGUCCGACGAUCCAUCAUCGACCGAGGAGCACAAAGAAGUUCUGUUUCUGUUUUUUUCAGAAACUUUAUUUUAGCUGUCAAGCAGAGAAUAGCUUGAACUAUUCAGACUAUUGUUGGCACUGUGGAAUUCUCGGGUGCCAA,0.258
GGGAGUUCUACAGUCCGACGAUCAGAAAACUGGUUGUAGUUUACUAUUUUACCUACCUAAAAACAGAUGUGAUGGCUCUUUAAGAAUUGGGUUUGACCAAAGUUCUCUUUGUUUUCAGGGAAAACUAUAUAAAUGGAAUUCUCGGGUGCCAA,0.355
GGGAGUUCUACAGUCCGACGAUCAGUUUAAGAGUUCCGAAACUGGAGAGUCGGGCUGAGGAACUGAGUUAGGUUGAACUUGGGAAAGCAAGCCCAAGUUCAACCUAACUCCUGCUGUAAAAUGGAGAGAACUGUGGAAUUCUCGGGUGCCAA,0.885
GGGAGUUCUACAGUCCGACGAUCAUUGGUGAGAUGUUUUCCGCUACAGUUAACAUGACAAAUGUCUCAGUGGCAAAAAUCCCCUUUUUGUAAGCCCCCAUAGUCUAGAGGCAGUUUUCUUUUUAAGAAUCAUGUGGAAUUCUCGGGUGCCAA,0.252
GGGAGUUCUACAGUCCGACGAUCUCUGACAUUACUUCCAGCAAAUAGGGAACAGUUUUGCCCUGGAACAGAGUUACAGAUACACAAUCAAGAGUGUUCUUGCUGAUGCUCGGGGUCUGAAGACUGUCUUCCUAUGGAAUUCUCGGGUGCCAA,0.261

# Study 4
# Target: CCNA2, cyclin fold, Cln2 fusion (human)
# Method: yeast growth competition, sequencing
# Medium: yeast
# Setting: strong parent motif
# Relative to: not given
# Reading: higher = stronger binding
# Parent: CDC25A docking peptide (human); PPHRRRLLFACSP
Substitution,normalised enrichment score
PPHRRWLLFACSP [R6W],1.94
PPHRWRLLFACSP [R5W],1.76
PTHRRRLLFACSP [P2T],3.41
PPHRRRLLFQCSP [A10Q],3.3
PPHRRRLMFACSP [L8M],2.22
PPHRRRPLFACSP [L7P],0.964
PPHRRRLEFACSP [L8E],3.1
PPHRRRLGFACSP [L8G],1.31
PPHRRRLLGACSP [F9G],1.12
PPHRRRLLFAVSP [C11V],2.93
PPHRRRLLFICSP [A10I],1.67
WPHRRRLLFACSP [P1W],1.98
PPHRRRLLFACSD [P13D],4.04
PPHRRGLLFACSP [R6G],0.32
PSHRRRLLFACSP [P2S],1.33
PPHRRRGLFACSP [L7G],1.13
PPHRRRLLFFCSP [A10F],3.33
PPHRRRLLIACSP [F9I],0.788
PPHRRRWLFACSP [L7W],1.66
PPHRRRHLFACSP [L7H],0.464
PPHRRRLLFACWP [S12W],2.41

# Repeated from above (study 4):
Substitution,normalised enrichment score
PPHRRRLLFAVSP [C11V],2.93
PPHRRRWLFACSP [L7W],1.66
WPHRRRLLFACSP [P1W],1.98
PPHRRRGLFACSP [L7G],1.13
PPHRRRLLFACSD [P13D],4.04
